Experimental data from different studies.
Every numbered part comes from another study and shows a few of its results, in no order.
UniProt O75676, sequence (whole entry, looked up): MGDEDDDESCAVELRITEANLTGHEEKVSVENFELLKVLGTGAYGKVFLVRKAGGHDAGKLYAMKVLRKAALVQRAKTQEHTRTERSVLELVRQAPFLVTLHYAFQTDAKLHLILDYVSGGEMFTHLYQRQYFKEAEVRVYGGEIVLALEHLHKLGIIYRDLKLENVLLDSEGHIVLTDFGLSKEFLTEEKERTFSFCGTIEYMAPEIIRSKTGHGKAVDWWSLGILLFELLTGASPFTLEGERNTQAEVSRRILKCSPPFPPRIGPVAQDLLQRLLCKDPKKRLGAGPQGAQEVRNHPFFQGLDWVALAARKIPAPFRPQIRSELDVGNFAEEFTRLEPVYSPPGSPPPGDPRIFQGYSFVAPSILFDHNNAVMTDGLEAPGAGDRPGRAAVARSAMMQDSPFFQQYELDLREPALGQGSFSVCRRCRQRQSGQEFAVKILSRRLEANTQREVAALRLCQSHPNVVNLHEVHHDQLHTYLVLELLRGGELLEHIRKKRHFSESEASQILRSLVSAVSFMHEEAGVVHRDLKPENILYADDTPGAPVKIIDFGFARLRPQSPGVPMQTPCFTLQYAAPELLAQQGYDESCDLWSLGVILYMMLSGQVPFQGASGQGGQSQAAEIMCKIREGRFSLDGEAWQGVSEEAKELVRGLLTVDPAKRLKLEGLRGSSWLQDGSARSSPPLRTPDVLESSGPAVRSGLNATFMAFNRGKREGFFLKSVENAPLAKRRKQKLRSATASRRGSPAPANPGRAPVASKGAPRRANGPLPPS
UniProt Q13153, sequence (whole entry, looked up): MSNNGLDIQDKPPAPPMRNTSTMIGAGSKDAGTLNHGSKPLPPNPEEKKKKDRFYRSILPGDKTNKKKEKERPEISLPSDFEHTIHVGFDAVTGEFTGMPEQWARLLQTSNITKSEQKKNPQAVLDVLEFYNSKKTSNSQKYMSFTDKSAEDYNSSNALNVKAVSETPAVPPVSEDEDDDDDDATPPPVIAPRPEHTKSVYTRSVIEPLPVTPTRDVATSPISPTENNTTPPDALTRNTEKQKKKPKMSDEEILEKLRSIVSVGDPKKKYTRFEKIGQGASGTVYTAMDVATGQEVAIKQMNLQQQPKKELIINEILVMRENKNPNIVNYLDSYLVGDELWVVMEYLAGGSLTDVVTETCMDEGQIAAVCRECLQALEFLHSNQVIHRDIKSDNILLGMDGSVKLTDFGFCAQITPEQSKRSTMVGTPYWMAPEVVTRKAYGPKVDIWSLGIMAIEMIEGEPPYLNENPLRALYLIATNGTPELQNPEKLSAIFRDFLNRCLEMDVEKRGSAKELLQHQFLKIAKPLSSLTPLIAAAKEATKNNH
UniProt Q9Y2K2, sequence (whole entry, looked up): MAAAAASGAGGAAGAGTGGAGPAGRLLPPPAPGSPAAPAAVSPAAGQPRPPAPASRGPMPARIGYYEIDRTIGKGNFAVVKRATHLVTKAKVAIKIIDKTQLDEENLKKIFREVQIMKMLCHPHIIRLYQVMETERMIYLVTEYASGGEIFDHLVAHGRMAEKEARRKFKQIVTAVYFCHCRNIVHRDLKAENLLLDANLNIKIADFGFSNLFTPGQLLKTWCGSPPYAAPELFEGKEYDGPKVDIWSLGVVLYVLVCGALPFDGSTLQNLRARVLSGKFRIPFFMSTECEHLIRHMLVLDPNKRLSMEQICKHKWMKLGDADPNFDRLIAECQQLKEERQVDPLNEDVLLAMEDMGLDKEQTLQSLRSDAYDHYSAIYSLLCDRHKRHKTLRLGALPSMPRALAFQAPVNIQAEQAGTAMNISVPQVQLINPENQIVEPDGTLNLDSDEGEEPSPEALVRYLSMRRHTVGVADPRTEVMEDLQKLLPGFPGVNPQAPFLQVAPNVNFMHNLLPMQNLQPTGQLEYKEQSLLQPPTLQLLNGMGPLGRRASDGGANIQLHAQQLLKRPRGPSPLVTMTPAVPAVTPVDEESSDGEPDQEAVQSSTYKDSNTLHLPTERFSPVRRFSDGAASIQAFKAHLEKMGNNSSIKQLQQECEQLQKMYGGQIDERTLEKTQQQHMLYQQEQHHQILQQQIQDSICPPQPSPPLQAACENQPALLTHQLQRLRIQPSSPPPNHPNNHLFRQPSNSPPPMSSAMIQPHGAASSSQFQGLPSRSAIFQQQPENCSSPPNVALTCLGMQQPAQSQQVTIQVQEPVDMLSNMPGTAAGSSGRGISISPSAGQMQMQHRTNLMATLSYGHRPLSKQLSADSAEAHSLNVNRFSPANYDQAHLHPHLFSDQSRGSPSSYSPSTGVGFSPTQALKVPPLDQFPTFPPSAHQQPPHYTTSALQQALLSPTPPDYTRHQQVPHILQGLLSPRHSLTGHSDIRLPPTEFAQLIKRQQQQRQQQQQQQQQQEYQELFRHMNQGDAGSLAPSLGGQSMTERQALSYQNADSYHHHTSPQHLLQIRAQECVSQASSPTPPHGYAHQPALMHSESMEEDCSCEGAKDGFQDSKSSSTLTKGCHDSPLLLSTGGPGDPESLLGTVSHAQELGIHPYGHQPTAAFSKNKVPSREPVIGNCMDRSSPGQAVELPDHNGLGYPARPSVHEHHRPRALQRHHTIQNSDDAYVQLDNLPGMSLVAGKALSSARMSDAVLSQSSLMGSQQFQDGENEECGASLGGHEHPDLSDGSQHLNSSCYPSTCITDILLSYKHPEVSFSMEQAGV
UniProt O00506, sequence (whole entry, looked up): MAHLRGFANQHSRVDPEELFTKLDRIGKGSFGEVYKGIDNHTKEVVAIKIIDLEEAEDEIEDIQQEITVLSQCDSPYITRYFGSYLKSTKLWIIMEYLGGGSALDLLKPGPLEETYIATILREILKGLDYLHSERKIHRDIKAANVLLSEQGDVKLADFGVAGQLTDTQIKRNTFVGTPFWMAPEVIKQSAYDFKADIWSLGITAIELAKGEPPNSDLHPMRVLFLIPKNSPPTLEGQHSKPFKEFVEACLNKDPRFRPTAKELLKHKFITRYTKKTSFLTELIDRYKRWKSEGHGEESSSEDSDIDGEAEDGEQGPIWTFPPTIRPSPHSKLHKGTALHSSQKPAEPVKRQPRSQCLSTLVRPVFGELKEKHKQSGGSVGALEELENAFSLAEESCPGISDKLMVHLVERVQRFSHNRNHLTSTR
UniProt P31749, sequence (whole entry, looked up): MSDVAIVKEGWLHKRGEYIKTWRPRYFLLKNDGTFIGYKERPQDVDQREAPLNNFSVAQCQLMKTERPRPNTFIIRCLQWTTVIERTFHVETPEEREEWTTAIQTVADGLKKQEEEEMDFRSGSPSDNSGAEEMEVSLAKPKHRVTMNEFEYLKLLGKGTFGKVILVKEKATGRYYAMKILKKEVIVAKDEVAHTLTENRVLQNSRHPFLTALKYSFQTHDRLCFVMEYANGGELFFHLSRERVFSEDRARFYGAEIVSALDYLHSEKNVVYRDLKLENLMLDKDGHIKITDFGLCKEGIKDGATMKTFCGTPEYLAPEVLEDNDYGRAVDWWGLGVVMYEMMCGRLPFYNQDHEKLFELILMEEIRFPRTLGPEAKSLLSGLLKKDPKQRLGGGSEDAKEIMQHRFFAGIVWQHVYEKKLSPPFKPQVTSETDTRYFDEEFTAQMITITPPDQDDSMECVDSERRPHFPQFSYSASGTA
UniProt Q8WU08, sequence (whole entry, looked up): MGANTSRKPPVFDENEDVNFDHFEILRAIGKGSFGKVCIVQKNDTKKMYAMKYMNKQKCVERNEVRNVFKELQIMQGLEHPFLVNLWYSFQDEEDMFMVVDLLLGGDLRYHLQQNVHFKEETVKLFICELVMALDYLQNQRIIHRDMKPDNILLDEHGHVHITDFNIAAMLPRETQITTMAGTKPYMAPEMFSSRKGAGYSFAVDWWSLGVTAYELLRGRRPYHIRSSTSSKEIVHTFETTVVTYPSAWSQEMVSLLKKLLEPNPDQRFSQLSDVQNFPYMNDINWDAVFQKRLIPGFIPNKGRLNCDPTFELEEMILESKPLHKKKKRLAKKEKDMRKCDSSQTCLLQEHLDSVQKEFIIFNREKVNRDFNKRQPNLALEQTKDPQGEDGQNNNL

Set 1 — effect on: cell-free assay; method: competition with immobilised ligand; concentration: 1 µM; endpoint: remaining binding
SMILES: CNCc1ccccc1-c1csc([C@H](C)Nc2nc(C)nc3cc(OC)c(OC)cc23)c1
STK32A (Homo sapiens, UniProt Q8WU08): 91%
Tyrosine-protein kinase ABL1, phosphorylated (ABL1, Homo sapiens, UniProt P00519, T315I): 87%
MAP3K7 (Homo sapiens, UniProt O43318): 75%
AKT1 (Homo sapiens, UniProt P31749): 100%
SIK3 (Homo sapiens, UniProt Q9Y2K2): 78%
TLK2 (Homo sapiens, UniProt Q86UE8): 100%
CAMKK2 (Homo sapiens, UniProt Q96RR4): 82%
STK25 (Homo sapiens, UniProt O00506): 100%
ACVRL1 (Homo sapiens, UniProt P37023): 100%
PIK3CA (Homo sapiens, UniProt P42336, E542K): 88%
PRKCD (Homo sapiens, UniProt Q05655): 100%
Ribosomal protein S6 kinase alpha-4, C-terminal kinase domain (RPS6KA4, Homo sapiens, UniProt O75676): 100%
PAK1 (Homo sapiens, UniProt Q13153): 99%

Set 2 — endpoint: inhibition
Compound: COc1cc(C(=O)N2CCC(N3CCN(C)CC3)CC2)ccc1Nc1ncc2c(n1)N(C)c1ccccc1C(=O)N2C
STLK5 (mouse); probe labelling, inhibitor, KiNativ ActivX ADP probe; mouse brain lysate; 1 µM, activation loop peptide: 4.6%
NUAK2 human; KiNativ profiling; human PBMC lysate; concentration not given, ATP probe, Lys1 site: 2%
mouse ROCK1 and ROCK2; probe labelling, KiNativ ATP probe; mouse brain lysate; 1 µM, LYS2 site DVkPDNMLLDK: -4.4%
human PBMC; probe labeling, inhibitor, KiNativ profiling, measured: VDTHALYAMkTLR; cell lysate; concentration not given, LYS1 site, together with: ATP acyl-phosphate probe: -9.2%
CASK (mouse); probe labelling, KiNativ ATP probe; mouse brain lysate; 0.1 µM, LYS1 labelled site: 23.9%
PIP5K1C (mouse); KiNativ ADP probe; mouse brain tissue; 0.1 µM, ATP site probe: 6.5%
MYLK; KiNativ ADP probe; mouse brain lysate; 1 µM, LYS1 site: 12.5%
YANK1/YANK2/YANK3 (mouse); probe labelling, inhibitor, KiNativ ActivX ADP probe; mouse brain lysate; 1 µM, Lys1 site peptide: 3%

Set 3 — effect on: enzyme activity; mode: inhibitor; concentration: 0.5 µM; baseline: control; endpoint: remaining activity
Target: Platelet-derived growth factor receptor alpha (PDGFRA, Homo sapiens, UniProt P16234)
UniProt P16234, sequence (whole entry, looked up): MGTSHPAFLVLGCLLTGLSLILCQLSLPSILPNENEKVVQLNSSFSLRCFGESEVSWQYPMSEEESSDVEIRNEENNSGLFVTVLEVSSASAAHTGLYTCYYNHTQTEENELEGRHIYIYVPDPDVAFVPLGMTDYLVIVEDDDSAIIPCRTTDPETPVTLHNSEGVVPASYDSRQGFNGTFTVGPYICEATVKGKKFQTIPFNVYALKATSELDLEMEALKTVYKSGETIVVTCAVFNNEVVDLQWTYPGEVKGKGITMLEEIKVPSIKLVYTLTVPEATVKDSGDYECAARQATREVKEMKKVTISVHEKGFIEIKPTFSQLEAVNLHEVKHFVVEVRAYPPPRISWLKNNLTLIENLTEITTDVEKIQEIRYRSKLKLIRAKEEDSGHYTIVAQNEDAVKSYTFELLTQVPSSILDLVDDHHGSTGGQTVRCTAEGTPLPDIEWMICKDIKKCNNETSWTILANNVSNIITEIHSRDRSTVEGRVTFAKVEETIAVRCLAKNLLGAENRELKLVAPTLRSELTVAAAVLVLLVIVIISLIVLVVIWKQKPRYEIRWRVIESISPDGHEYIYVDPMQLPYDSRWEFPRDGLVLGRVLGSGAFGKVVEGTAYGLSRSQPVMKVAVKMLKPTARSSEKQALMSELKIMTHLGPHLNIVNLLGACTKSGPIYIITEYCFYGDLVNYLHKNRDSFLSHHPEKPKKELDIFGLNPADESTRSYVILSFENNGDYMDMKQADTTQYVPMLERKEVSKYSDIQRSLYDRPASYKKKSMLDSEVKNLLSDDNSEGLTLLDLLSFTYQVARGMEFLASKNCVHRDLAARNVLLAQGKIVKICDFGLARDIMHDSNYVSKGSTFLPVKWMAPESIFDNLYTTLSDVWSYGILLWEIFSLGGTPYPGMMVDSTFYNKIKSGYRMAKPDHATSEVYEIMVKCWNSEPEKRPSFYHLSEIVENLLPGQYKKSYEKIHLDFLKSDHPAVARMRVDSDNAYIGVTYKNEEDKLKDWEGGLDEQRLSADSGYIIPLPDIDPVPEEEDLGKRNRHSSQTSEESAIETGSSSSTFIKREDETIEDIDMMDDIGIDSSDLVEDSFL
O=C1Cc2c([nH]c3ccc([N+](=O)[O-])cc23)-c2ccccc2N1: 91.8%
CC(C)(C)n1nc(Cc2cccc3ccccc23)c2c(N)ncnc21: 94.7%
Nc1ncnc2c1cnn2-c1ccccc1: 103%
N#CC(=C(N)Sc1ccc(N)cc1)c1ccccc1C(F)(F)F: 99.5%
COc1ccc(S(=O)(=O)N(CCO)c2ccccc2CN(C)CC=Cc2ccc(Cl)cc2)cc1: 102%
CSc1nc(-c2ccnc(N[C@@H](C)c3ccccc3)c2)c(-c2ccc(F)cc2)[nH]1 (racemic): 102%
CCCC(=O)Oc1ccc2[nH]c(C(=O)c3cc4ccccc4[nH]3)cc2c1: 96.6%
CCc1[nH]c(-c2ccc(OC)cc2)nc1-c1ccncc1: 96.3%

Set 4 — cell line: mouse MPNST tumor cells; method: high-content immunofluorescence imaging; measured: nuclear SOX9; concentration: 10 µM; time: 12 h; notes: mean of 2 replicates; baseline: DMSO control; reading: higher = more nuclear SOX9; endpoint: nuclear SOX9 intensity
Cc1cc(C)c(NC(=O)C2CC3CCC2C3)c(C)c1 (stereo not shown): 93.5 % of DMSO
O=C(O)c1ccccc1OP(=O)(O)O: 105 % of DMSO
CC(C)NCC(O)c1ccc(O)c(O)c1 (single isomer, unassigned; (-)): 98.2 % of DMSO
CN(C)CCN1C(=O)c2ccccc2N(C)c2ccccc21: 88.9 % of DMSO
O=C(O)c1ccccc1Nc1cccc(OCc2ccc3ccccc3n2)c1: 90.2 % of DMSO
